# Experimental data pooled from the literature.
# Several values in a cell are separate wells, animals, samples, runs or records. ± gives the spread as reported.
# KCNH2: Voltage-gated inwardly rectifying potassium channel KCNH2 (KCNH2, Homo sapiens, UniProt Q12809)
# Sequence of UniProt Q12809 (whole entry, looked up): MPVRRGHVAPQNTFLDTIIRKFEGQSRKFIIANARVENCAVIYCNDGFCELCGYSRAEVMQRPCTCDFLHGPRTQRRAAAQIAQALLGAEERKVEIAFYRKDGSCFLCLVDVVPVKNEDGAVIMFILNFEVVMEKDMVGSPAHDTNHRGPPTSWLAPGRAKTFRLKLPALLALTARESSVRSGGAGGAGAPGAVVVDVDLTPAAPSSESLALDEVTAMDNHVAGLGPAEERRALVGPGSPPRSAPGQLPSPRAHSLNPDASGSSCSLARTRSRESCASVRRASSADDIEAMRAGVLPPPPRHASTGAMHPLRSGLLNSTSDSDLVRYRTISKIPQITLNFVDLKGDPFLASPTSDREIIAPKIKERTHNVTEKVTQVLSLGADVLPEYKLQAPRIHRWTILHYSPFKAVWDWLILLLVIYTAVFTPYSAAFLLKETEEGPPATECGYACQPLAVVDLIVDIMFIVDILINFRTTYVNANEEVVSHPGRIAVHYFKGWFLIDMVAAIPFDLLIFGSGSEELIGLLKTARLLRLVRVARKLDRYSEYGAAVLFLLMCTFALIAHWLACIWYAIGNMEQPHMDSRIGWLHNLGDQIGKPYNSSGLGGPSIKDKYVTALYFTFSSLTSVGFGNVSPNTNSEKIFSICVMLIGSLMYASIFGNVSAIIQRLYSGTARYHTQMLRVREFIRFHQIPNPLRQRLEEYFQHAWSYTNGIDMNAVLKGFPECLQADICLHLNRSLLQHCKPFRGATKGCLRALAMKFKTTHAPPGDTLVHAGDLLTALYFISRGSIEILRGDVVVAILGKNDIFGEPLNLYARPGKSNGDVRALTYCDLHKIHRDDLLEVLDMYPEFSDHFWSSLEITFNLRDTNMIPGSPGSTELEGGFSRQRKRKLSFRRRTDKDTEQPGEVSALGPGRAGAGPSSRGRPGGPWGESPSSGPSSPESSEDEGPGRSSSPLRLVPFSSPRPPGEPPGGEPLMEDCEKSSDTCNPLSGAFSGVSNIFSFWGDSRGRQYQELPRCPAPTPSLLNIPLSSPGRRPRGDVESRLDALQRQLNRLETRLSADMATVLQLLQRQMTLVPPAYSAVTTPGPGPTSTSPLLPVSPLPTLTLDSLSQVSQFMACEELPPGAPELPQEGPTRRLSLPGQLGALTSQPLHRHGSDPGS
# ABCC3: ATP-binding cassette sub-family C member 3 (ABCC3, Homo sapiens, UniProt O15438)
# Sequence of UniProt O15438 (whole entry, looked up): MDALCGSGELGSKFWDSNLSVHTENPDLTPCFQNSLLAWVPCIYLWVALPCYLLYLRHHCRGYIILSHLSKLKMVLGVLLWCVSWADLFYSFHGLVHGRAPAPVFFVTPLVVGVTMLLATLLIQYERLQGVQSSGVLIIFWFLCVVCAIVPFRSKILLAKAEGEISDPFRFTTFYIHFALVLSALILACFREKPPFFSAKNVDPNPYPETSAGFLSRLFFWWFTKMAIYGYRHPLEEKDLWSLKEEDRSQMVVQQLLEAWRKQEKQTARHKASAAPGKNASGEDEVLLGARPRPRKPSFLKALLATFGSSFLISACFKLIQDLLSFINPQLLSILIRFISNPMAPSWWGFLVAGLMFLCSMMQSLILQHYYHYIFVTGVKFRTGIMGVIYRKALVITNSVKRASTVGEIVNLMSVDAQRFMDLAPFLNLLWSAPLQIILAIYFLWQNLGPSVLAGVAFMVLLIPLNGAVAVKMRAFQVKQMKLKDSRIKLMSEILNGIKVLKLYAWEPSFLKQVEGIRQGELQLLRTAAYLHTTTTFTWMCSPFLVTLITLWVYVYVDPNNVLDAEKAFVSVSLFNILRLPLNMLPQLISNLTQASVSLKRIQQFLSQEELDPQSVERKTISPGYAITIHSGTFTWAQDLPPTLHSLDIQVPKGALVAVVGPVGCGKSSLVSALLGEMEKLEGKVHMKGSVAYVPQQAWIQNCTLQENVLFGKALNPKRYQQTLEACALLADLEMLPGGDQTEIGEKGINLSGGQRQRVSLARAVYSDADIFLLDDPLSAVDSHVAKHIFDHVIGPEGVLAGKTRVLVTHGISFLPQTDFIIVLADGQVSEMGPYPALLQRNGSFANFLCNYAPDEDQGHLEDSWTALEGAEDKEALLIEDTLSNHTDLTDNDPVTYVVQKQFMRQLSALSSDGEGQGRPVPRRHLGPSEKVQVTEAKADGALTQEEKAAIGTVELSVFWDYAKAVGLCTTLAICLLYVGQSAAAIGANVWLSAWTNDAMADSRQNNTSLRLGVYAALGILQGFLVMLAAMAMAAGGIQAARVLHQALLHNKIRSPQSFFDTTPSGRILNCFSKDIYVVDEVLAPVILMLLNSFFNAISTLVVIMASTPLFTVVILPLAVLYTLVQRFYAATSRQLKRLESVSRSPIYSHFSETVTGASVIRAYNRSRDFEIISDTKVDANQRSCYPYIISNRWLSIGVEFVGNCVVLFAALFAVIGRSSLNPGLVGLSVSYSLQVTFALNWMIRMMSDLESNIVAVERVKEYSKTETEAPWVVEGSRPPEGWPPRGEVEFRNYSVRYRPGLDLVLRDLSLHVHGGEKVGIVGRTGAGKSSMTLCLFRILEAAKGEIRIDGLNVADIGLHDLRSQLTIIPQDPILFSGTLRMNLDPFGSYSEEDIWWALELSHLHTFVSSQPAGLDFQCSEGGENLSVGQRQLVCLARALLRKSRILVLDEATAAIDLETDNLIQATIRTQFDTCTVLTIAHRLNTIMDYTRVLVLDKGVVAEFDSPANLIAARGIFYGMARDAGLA
# Sequence of UniProt P10632 (whole entry, looked up): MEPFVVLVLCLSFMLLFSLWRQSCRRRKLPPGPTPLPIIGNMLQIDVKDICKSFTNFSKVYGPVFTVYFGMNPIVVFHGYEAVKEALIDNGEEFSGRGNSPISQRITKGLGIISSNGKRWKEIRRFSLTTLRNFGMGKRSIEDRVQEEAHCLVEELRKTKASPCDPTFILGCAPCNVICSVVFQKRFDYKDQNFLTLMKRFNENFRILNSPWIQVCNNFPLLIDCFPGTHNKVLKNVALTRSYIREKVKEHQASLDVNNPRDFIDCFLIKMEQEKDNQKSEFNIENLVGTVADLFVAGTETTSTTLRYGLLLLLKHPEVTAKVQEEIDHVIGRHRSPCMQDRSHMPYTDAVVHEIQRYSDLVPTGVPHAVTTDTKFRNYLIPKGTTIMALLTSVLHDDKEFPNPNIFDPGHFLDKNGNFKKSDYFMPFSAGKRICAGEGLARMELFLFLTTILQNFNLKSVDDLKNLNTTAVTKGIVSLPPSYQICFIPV
Structure (SMILES),tested on,assay,system,conditions,how to read,quantity,result
O=C(Nc1cnccc1-c1ccc([18F])nc1)c1ccnc(NC(=O)C2CC2)c1,GSK-3β imaging tracer,,"FVB/NJ mice, both sexes, brain","intravenous, 2 min, early frames, no P-gp inhibitor",,SUV,0.31 ± 0.14
Nc1ncc(-c2cc(-c3cnn(CC(F)(F)F)c3)ncc2F)nc1C(=O)NC1CNCC(F)C1 (stereo not shown),MEK1,KINOMEscan competition binding,,1 µM,baseline: DMSO control,remaining binding,65%
COc1cc2nc(c1)CNCc1cc(OC)cc(n1)CNC2.[Cu+2],Cu(II)/Cu(I) redox couple,cyclic voltammetry,DMF,"0.1 M TBAP, 100 mV/s scan",,peak potential separation,118 mV
Cc1cc(/C=C/C#N)cc(C)c1Oc1nc(NC2CCN(Cc3ccc(S(C)(=O)=O)cc3)CC2)nc2ncccc12,KCNH2,"hERG current, manual patch clamp",CHO stably expressing hERG,0.3 µM,,inhibition,10.5%
C=CC(=O)Nc1cccc(Cn2ncc3cnc(Nc4cnn(CCOC)c4)nc32)c1,MKNK1 human,"binding, KINOMEscan",,100 nM,lower = stronger binding,percent of control,84%
O=C1C2CC3CC1CC(C(=O)N1CCN(c4ccc([N+](=O)[O-])c5ncccc45)CC1)(C3)C2,Salmonella typhimurium,Ames test,TA98,"0.05 µg/well, with S9",,mean revertant colonies,8 colonies/well
O=C(c1ccc(OCCN2CCCCC2)cc1)c1c(-c2ccc(O[C@@H]3O[C@H](C(=O)O)[C@@H](O)[C@H](O)[C@H]3O)cc2)sc2cc(O)ccc12,ABCC3,"transporter uptake, inhibitor",Sf9,"10 µM, pH 7, cell membranes",,inhibition,> 75%
O=C(O)CN1CCN(CC(=O)O)CCN(Cc2cccc(P(=O)(O)O)n2)CC1,Y3+,UV-vis spectrophotometric titration,,[M(L)]- complex,,log K101 stability constant,23.5
[Cu+2].c1cc2nc(c1)CNCc1cccc(n1)CNC2,Cu(II)/Cu(I) redox couple,cyclic voltammetry,DMF,together with: TBAP,baseline: Fc/Fc+,anodic peak potential,-690 mV
C=C(NC(=O)c1csc(-c2nc3c(cc2O)-c2nc(cs2)C(=O)NC(C(C)O)C(=O)NC(=C(C)OC)c2nc(cs2)C(=O)NC2c4nc(cs4)C(=O)NC(COC(=O)c4c5c6c(cccc6n4O)COC(=O)C(OC4CC(C)(O)C(N(C)C)C(C)O4)C2OC5)c2nc-3cs2)n1)C(N)=O (stereo not shown),,,"cynomolgus monkey, female, plasma","intravenous infusion, 1 mg/kg single dose",,clearance,2.14 mL/min/kg
FC(F)(F)c1cc2nc(c1)CNCc1cc(C(F)(F)F)cc(n1)CNC2.[Cu+2],Cu(II)/Cu(I) redox couple,cyclic voltammetry,DMF,together with: TBAP,baseline: Fc/Fc+,cathodic peak potential,-858 mV
O=C(c1ccc(OCCN2CCCCC2)cc1)c1c(-c2ccc(O[C@@H]3O[C@H](C(=O)O)[C@@H](O)[C@H](O)[C@H]3O)cc2)sc2cc(O[C@@H]3O[C@H](C(=O)O)[C@@H](O)[C@H](O)[C@H]3O)ccc12,ABCC3,substrate,Sf9 membrane vesicles,pH 7,,intrinsic clearance,6.54 µL/min/mg protein
CNC(=O)C1CCCN(C(=O)C2CC3CCC2N3C(=O)[C@@H]2C[C@@H](O)CN2C(=O)NCc2cccc(Cl)c2F)C1 (mixture of isomers),"Cytochrome P450 2C8 (CYP2C8, Homo sapiens, UniProt P10632)",preincubation with NADPH,human,0.0686 µM,baseline: negative control,remaining activity,92.3% and 88% and 101%
Ic1cc2nc(c1)CNCc1cc(I)cc(n1)CNC2.[Cu+2],Cu(II)/Cu(I) redox couple,cyclic voltammetry,DMF,together with: TBAP,baseline: Fc/Fc+,half-wave potential,-687 mV
N#C[C@@H]1CC(F)(F)CN1C(=O)CNC(=O)c1ccnc2c(NC(=O)[C@H](CCCCNC(=O)CCOCCOCCOCCOCCOCCOCCNC(=O)CN3CCN(CC(=O)[O-])CCN(CC(=O)[O-])CCN(CC(=O)[O-])CC3)NC(=O)CCCc3ccc(I)cc3)cccc12.[177Lu+3],U-87 MG tumour model,,"host not given, heart","4 h, tumour-bearing",,tracer uptake,1.54 %ID/g
O=C(Nc1cnccc1-c1ccc([18F])cc1)c1ccnc(NC(=O)C2CC2)c1,GSK-3β imaging tracer,,"FVB/NJ mice, both sexes, brain","intravenous, 4 min, early frames, no P-gp inhibitor",,SUV,0.63 ± 0.15
O=C(c1ccc(OCCN2CCCCC2)cc1)c1c(-c2ccc(O)cc2)sc2cc(O[C@@H]3O[C@H](C(=O)O)[C@@H](O)[C@H](O)[C@H]3O)ccc12,ABCC3,"transporter uptake, substrate",Sf9,"pH 7, cell membranes",,Km,< 5 µM
O=C1NC2(CC2)COc2ncc(F)cc2[C@H]2COCCN2c2ccn3ncc1c3n2,KCNH2,"potassium current, whole-cell patch clamp",CHO cells expressing hERG,40.00 µM,,inhibition,70.5 ± 3.41%
COC1CN([C@H]2CC[C@H]([C@@]3(C)Oc4c(Cl)cc(C(=O)NCc5c(SC)cc(C)[nH]c5=O)c(C)c4O3)CC2)C1,,"RNA-seq, refers to: NAALAD2 mouse homolog","mouse, HT-1376 xenograft, whole blood",dose not given,baseline: vehicle,log2 fold change,0.527

# Some of these lines once more:
Structure (SMILES),tested on,assay,system,conditions,how to read,quantity,result
O=C(Nc1cnccc1-c1ccc([18F])nc1)c1ccnc(NC(=O)C2CC2)c1,GSK-3β imaging tracer,,"FVB/NJ mice, both sexes, brain","intravenous, 2 min, early frames, no P-gp inhibitor",,SUV,0.31 ± 0.14
Ic1cc2nc(c1)CNCc1cc(I)cc(n1)CNC2.[Cu+2],Cu(II)/Cu(I) redox couple,cyclic voltammetry,DMF,together with: TBAP,baseline: Fc/Fc+,half-wave potential,-687 mV
